Assay results gathered from unrelated publications.
Protocols differ between the studies behind these lines. In brackets after ≈: the same amount, converted by molar mass.
Chain of UniProt Q9Y2H9 (whole entry, looked up): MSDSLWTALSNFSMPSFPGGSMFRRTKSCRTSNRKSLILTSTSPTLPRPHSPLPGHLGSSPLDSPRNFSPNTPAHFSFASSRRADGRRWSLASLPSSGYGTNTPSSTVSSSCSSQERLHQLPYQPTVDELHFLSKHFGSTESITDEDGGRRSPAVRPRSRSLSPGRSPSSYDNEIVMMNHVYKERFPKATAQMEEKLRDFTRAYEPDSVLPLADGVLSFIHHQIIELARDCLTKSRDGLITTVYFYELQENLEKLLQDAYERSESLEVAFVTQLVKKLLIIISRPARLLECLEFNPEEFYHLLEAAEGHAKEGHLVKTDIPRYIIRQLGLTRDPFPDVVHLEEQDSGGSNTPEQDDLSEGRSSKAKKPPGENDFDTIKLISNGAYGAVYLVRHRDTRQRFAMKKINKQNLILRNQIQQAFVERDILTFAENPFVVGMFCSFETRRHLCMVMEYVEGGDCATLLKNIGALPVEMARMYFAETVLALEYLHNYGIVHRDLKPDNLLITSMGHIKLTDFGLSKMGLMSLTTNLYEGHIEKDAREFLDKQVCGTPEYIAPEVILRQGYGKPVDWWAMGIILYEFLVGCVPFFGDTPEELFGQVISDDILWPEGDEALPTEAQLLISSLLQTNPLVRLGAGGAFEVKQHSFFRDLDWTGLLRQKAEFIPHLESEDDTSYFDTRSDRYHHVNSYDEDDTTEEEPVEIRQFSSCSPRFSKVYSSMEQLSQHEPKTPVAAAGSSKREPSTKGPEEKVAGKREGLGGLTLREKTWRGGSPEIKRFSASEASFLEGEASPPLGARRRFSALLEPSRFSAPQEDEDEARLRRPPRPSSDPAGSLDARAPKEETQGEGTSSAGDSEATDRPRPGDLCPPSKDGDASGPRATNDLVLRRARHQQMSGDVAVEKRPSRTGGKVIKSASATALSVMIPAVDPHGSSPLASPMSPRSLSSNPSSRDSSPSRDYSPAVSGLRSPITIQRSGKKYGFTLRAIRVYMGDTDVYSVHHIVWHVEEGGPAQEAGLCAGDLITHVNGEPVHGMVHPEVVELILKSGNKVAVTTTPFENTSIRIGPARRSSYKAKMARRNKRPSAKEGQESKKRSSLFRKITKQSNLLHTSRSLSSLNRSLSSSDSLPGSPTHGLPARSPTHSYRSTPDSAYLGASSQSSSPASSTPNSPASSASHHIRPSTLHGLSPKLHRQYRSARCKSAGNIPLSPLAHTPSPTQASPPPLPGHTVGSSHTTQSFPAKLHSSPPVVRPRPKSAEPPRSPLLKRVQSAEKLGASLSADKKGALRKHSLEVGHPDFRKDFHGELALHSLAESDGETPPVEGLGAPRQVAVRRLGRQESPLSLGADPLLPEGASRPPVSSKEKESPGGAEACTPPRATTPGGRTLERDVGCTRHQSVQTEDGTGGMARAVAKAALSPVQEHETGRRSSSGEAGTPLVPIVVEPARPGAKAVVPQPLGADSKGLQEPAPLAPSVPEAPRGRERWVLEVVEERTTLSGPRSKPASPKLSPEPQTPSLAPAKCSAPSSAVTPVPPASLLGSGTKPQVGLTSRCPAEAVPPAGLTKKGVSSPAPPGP
Chain of UniProt Q96D53 (whole entry, looked up): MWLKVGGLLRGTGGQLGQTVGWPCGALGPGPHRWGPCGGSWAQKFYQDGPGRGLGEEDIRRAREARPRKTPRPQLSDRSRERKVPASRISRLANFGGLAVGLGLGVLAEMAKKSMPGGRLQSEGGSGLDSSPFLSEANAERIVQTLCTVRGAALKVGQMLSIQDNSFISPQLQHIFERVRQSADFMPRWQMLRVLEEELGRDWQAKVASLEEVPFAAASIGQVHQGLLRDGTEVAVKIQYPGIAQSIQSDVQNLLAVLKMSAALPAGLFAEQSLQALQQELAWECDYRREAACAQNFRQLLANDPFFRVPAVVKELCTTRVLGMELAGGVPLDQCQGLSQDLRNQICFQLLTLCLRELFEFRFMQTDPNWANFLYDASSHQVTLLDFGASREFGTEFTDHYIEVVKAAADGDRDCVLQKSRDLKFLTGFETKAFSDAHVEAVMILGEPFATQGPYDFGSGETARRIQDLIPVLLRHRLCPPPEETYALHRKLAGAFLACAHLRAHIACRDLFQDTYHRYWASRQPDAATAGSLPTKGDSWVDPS
Chain of UniProt Q9BYP7 (whole entry, looked up): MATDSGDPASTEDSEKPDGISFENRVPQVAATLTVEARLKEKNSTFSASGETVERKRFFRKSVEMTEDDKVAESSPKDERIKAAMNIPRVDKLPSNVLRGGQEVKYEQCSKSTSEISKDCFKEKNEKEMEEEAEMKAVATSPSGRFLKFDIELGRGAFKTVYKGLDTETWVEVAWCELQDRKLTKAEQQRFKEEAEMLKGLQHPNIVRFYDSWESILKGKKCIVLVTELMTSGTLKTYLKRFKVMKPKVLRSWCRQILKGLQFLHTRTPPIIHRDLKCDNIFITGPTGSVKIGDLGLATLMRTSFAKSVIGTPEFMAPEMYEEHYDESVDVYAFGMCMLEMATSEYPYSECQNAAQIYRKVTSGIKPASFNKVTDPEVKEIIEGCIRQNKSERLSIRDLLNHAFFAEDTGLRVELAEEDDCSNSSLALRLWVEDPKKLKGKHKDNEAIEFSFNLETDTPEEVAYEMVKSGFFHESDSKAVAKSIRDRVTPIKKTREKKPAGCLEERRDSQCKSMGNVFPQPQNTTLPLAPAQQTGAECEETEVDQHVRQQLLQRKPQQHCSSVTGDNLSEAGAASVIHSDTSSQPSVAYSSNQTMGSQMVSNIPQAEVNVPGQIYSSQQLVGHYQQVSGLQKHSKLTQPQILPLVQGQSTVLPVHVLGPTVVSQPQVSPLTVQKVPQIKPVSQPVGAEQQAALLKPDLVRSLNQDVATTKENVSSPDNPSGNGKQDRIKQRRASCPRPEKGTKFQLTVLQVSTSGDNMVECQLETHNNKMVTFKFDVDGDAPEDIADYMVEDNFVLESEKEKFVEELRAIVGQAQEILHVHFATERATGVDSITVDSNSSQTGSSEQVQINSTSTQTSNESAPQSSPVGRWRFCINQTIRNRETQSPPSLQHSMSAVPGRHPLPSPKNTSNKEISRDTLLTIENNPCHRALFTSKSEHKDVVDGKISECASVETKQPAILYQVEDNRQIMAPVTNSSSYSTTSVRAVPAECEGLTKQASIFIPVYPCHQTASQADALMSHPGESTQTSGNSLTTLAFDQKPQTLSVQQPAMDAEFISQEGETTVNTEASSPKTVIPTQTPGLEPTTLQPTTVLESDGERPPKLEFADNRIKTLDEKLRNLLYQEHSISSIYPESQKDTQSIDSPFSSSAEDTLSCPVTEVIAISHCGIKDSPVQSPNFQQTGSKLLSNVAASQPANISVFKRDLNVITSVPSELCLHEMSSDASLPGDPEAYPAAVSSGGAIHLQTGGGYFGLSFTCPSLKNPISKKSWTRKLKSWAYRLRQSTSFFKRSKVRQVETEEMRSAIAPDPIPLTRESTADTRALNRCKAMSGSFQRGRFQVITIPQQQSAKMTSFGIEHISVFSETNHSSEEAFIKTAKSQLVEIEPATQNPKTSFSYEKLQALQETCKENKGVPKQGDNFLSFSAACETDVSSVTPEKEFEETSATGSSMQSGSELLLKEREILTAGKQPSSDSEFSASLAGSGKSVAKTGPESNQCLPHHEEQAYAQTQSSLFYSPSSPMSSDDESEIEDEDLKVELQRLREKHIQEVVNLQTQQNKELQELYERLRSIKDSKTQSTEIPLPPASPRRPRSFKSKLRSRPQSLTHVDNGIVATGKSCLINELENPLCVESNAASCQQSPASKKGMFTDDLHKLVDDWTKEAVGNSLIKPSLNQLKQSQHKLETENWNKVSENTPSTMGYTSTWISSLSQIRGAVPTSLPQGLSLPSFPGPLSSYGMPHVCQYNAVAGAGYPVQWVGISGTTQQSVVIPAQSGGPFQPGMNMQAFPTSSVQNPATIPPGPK
Chain of UniProt Q8N752 (whole entry, looked up): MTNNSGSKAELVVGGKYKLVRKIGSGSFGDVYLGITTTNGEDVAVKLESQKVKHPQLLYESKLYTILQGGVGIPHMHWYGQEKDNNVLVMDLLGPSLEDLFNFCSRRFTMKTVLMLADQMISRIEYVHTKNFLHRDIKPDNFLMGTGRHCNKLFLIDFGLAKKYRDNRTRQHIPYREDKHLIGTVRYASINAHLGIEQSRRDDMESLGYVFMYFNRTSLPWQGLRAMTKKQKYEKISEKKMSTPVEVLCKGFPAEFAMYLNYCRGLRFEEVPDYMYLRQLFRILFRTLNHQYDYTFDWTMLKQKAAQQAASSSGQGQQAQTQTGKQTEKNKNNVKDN

SMILES	target or system	test	system	setting	quantity	result
CC[C@H](C)[C@H](NC(=O)[C@H](Cc1ccccc1)NC(=O)[C@H](CCC(=O)O)NC(=O)[C@H](CCCNC(=N)N)NC(=O)[C@H](C)NC(=O)[C@H](C)NC(=O)[C@H](CCC(N)=O)NC(=O)[C@H](CCC(=O)O)NC(=O)[C@H](CCC(=O)O)NC(=O)[C@H](CC(C)C)NC(=O)[C@H](Cc1ccc(O)cc1)NC(=O)[C@H](CO)NC(=O)[C@H](CO)NC(=O)[C@@H](NC(=O)[C@H](CC(=O)O)NC(=O)[C@H](CO)NC(=O)[C@@H](NC(=O)[C@H](Cc1ccccc1)NC(=O)[C@@H](NC(=O)CNC(=O)[C@H](CCC(=O)O)NC(=O)[C@H](C)NC(=O)CCc1c[nH]cn1)[C@@H](C)O)[C@@H](C)O)C(C)C)C(=O)N[C@@H](C)C(=O)N[C@@H](Cc1c[nH]c2ccccc12)C(=O)N[C@@H](CC(C)C)C(=O)N[C@H](C(=O)N[C@@H](CCCNC(=N)N)C(=O)NCC(=O)N[C@@H](CCCNC(=N)N)C(=O)N[C@@H](CCCCNC(=O)COCCOCCNC(=O)COCCOCCNC(=O)CC[C@H](NC(=O)CCCCCCCCCCCCCCCCC(=O)O)C(=O)O)C(=O)NCC(=O)NCC(=O)N[C@@H](CO)C(=O)N[C@@H](CCCCNc1c(NCCCCCN(O)C(=O)CCC(=O)NCCCCCN(O)C(=O)CCC(=O)NCCCCCN(O)C(C)=O)c(=O)c1=O)C(=O)O)C(C)C			rat, plasma	intravenous, 20 nmol/kg	AUC	2.56 µM·h
COC(=O)c1cc(-c2cccc(NC(=O)Nc3cccc(F)c3)c2)on1	Mycolicibacterium fortuitum	microbial growth, broth dilution	ATCC6841	48 h	MIC	> 64 µg/mL
O=C(NNc1ccccc1)c1nnc(CC23CC4CC(CC(C4)C2)C3)o1	Rhizoctonia solani	microbial growth			EC50	> 50 µg/mL
COC(=O)c1cc(-c2cccc(NC(=S)Nc3ccc(F)cc3)c2)on1	Mycolicibacterium fortuitum	microbial growth, broth dilution	ATCC6841	48 h	MIC	> 64 µg/mL
C#Cc1ccc(C=NNC(=O)c2ccc(Br)cc2Br)c(O)c1	Cryptococcus neoformans	microbial killing			MFC	0.25 µg/mL
Nc1ncc(-c2nc(N3CCOCC3)nc(N3CCOCC3)n2)c(C(F)F)n1	WNK3 (Homo sapiens, UniProt Q9BYP7)	binding, competition with immobilised ligand		10 µM	remaining binding	56%
CN(C)S(=O)(=O)c1ccc(Sc2ccccc2)c(C(=O)N2CCCC(C(N)=O)C2)c1 (stereo not shown)	Plasmodium falciparum	parasite growth, SYBR Green	3D7	72 h	EC50	66.7 nM
COc1ccc(-c2cc(C(F)(F)F)c3c(N)c(C(=O)NC45CC6CC(CC(C6)C4)C5)sc3n2)cc1	Mycobacterium tuberculosis	microbial growth	H37RV		IC50	760 nM
Cc1cc(OC(C)C(=O)N2CCc3ccccc32)ccc1Cl (stereo not shown)	Plasmodium falciparum	parasite growth, SYBR Green	3D7	72 h	EC50	1410 nM
N.N.[Cl][Pt][Cl]	KARPAS-299	cell growth or viability, ATP luminescence		10 µM, 72 h	inhibition	100%
CC(C)C[C@H](NC(=O)[C@H](Cc1ccccc1)NC(=O)[C@H](Cc1ccccc1)NC(=O)Cc1ccc(-c2ccccc2)cc1)C(=O)N[C@@H](CCCCN)C(=O)N[C@@H](CCCNC(=N)N)C(=O)N[C@H](C(=O)N[C@@H](Cc1c[nH]c2ccccc12)C(=O)N[C@@H](CCCCN)C(=O)N[C@@H](CCCNC(=N)N)C(=O)O)C(C)C		metabolic stability	dog, liver microsomes	1 h	compound remaining	33.9%
[2H]c1c([2H])c([C@]2([2H])CCCN2C(=O)C(C)(C)Oc2ccc3cn[nH]c3c2)c([2H])c([2H])c1C([2H])([2H])[2H]	MAST1 (Homo sapiens, UniProt Q9Y2H9)	binding, competition with immobilised ligand		1 µM	remaining binding	76%
COC(=O)c1cc(-c2cccc(NC(=O)Nc3ccc(C)cc3)c2)on1	Mycobacteroides chelonae	microbial growth, broth dilution	ATCC35752	48 h	MIC	> 64 µg/mL
COc1ncccc1-c1cnn2ccc(N3CCN(C(=O)OC(C)C)CC3)nc12	COQ8B (Homo sapiens, UniProt Q96D53)	binding, competition with immobilised ligand		1 µM	remaining binding	81%
COC(=O)c1cc(-c2cccc(NC(=O)Nc3cc(OC)ccc3OC)c2)on1	Klebsiella pneumoniae	microbial growth, broth dilution	BAA1705		MIC	> 64 µg/mL
Cc1nn(C)cc1-c1nc2c(N3CCN(Cc4ccc(Cl)cc4)CC3)c(Cl)cnc2[nH]1	CSNK1A1L (Homo sapiens, UniProt Q8N752)	binding, competition with immobilised ligand		1 µM	remaining binding	93%
O=C(NCCc1ncc(C(F)(F)F)cc1Cl)c1ccccc1C(F)(F)F	Rhizoctonia solani	microbial growth		50 µg/mL	inhibition	27.3%

SMILES	target or system	test	system	setting	quantity	result
Cc1noc(-c2cccs2)c1C(=O)NCCc1cccc(Cl)c1	Plasmodium falciparum	parasite growth, SYBR Green	3D7	72 h	EC50	1330 nM
C#Cc1ccc(C=NNC(=O)c2ccc(Br)c(Br)c2)c(O)c1	Cryptococcus neoformans	microbial growth, broth dilution		pH 7.4	MIC80	0.007 µg/mL (≈ 0.0166 µM)
CC(=O)N1CCN(c2ccc(OCC3COC(Cn4ccnc4)(c4ccc(Cl)cc4Cl)O3)cc2)CC1 (stereo not shown)	Candida albicans	microbial killing, broth dilution	56452	48 h	MFC	> 64 µM
C#Cc1ccc(C(=O)NN=Cc2cccc(C#C)c2O)cc1	Candida albicans	microbial growth		pH 7.4	MIC80	4 µg/mL (≈ 13.9 µM)
CC(Oc1cccc(Cl)c1)C(=O)N1CCc2ccccc21 (stereo not shown)	Plasmodium falciparum	parasite growth, SYBR Green	3D7	72 h	EC50	746 nM
C#Cc1ccc(C(=O)NN=Cc2ccc(C#C)cc2O)cc1	Cryptococcus neoformans	microbial growth, broth dilution		pH 7.4	MIC80	0.007 µg/mL (≈ 0.0243 µM)
CC(C)(C)C(O)(CCc1ccc(Cl)cc1)Cn1cncn1 (stereo not shown)	Rhizoctonia solani	microbial growth		200 µg/mL	inhibition	100%
COC(=O)c1cc(-c2cccc(NC(=O)Nc3ccc(Cl)c(C(F)(F)F)c3)c2)on1	Mycobacteroides chelonae	microbial growth, broth dilution	ATCC35752	48 h	MIC	> 64 µg/mL
C#Cc1ccc(C(=O)NN=Cc2cc(C#C)ccc2O)cc1	Candida albicans	microbial growth		pH 7.4	MIC80	0.06 µg/mL (≈ 0.208 µM)
Cc1csc2[nH]c(=O)n(O)c(=O)c12	Human betaherpesvirus 5	viral replication, inhibitor		10 µM, 7 days	inhibition	5.2%
COC(=O)c1cc(-c2cccc(NC(=S)Nc3cccc(Br)c3)c2)on1	Pseudomonas aeruginosa	microbial growth, broth dilution	ATCC27853		MIC	> 64 µg/mL
C#Cc1ccc(O)c(C=NNC(=O)c2ccc(Br)cc2)c1	Cryptococcus neoformans	microbial growth, broth dilution		pH 7.4	MIC80	0.007 µg/mL (≈ 0.0204 µM)
O[C@@H](CN[C@H](COCC1CC1)Cc1ccccc1)c1cc(Cl)cc2c1-c1ccc(Cl)cc1C2	Plasmodium falciparum	parasite growth, SYBR Green	W2	48 h, drug-resistant strain, blood stage	IC50	6.4 nM
COC(=O)c1cc(-c2ccc(OC)c(NC(=O)Nc3ccc(Cl)c(Cl)c3)c2)on1	Mycolicibacterium fortuitum	microbial growth, broth dilution	ATCC6841	48 h	MIC	> 64 µg/mL
Nc1c(C(=O)N2CC(F)(F)C2)sc2nc(-c3ccccc3)ccc12	Mycobacterium tuberculosis	microbial growth	H37RV		IC50	> 100000 nM
Nc1c2c(nc3c1C(c1ccc(Cl)c(Cl)c1)c1ccc(OCC(=O)c4ccc(Cl)cc4)cc1O3)CCCC2 (stereo not shown)	SH-SY5Y	cell growth or viability, MTT		1.6 µM	viability	82%
O=C(NNc1cc(F)ccc1F)c1nnc(CC23CC4CC(CC(C4)C2)C3)o1	Rhizoctonia solani	microbial growth			EC50	6.96 µg/mL
